Measurements of several laboratories.
Each numbered part is a random draw from the data of one study; scales do not carry over between parts. Positions count from the first letter of the parent shown.

Block 1
Target: Interferon regulatory factor 3, full length, phosphomimetic (IRF3, Homo sapiens, UniProt Q14653, residues 1-427, S386D/S396D/S398D/S402D/T404D/S405D)
Method: protein-binding microarray
Molecule type: double-stranded DNA, one strand shown
Medium: in vitro
Tested at: 2540 nM top
Setting: 60-bp whole probe
Together with: salmon DNA 0.4 mg/ml
Reference: random background probes
Direction: higher = stronger binding
Constant ends, left off below: GCCTAGCAC … GTCTTGATTCGCTTGACGCTGCTG
Target sequence (chain): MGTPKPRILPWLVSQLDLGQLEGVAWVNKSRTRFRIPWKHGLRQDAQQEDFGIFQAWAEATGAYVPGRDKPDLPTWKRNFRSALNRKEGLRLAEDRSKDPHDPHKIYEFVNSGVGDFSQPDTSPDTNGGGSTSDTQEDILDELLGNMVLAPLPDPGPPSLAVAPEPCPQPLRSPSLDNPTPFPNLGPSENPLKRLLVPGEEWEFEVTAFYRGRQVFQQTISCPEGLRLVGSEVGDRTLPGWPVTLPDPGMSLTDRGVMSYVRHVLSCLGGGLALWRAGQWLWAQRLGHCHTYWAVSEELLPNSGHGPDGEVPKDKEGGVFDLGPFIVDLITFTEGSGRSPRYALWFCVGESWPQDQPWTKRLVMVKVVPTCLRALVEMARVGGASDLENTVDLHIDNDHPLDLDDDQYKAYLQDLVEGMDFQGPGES
| Sequence | fitted relative affinity |
| --- | --- |
| GACGGACTGGGGTTGCGGGACGTGCTA | -0.292 z-score |
| GACGGACTAGGTCTCGGGACGTGCTAG | -0.479 z-score |
| CACGGTCTCGGTCTCGGGACGTGCTAG | 1.08 z-score |
| TCATTTTTTTTTTTTTCACTGTGCTAG | 1.17 z-score |
| TTAGGTATCGGTATGGGTTAGTGCTAG | 2.67 z-score |
| TCATCCATCACTTTCCAACTGTGCTAG | 2.45 z-score |
| TCACATTCTGAATTCGAACTGTGCTAG | 2.15 z-score |
| GACGGTTTCCTTTCCCTTACGTGCTAG | 10.4 z-score |
| TTAGCACTGGACACTGGGTTAGTGCTA | -1.06 z-score |

Block 2
Target: Centromere-binding protein 1, full length, N-terminal tag (CBF1, Saccharomyces cerevisiae, UniProt P17106, residues 1-351)
Chain of UniProt P17106 (whole entry, looked up): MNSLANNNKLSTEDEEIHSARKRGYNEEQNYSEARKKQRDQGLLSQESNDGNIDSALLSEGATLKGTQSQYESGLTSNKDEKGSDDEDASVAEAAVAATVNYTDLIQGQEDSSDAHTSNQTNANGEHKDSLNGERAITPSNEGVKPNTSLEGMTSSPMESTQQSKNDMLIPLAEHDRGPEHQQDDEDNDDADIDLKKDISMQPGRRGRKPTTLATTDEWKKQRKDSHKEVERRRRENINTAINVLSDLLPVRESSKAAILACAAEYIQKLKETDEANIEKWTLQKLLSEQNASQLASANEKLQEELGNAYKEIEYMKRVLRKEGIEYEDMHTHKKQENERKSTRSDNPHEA
Method: protein-binding microarray
Molecule type: double-stranded DNA, one strand shown
Medium: in vitro
Tested at: 0.8 µM
Setting: whole 60-bp probe, no competitor
Direction: higher = stronger binding
Constant ends, left off below: … GTCTTGATTCGCTTGACGCTGCTG
| Sequence | fluorescence intensity |
| --- | --- |
| CTATAAGAATTTCACCACGACATCGAAATGTAATTC | 524 a.u. |
| CTAGCACCTGCTAATCTGGTGGATAACGGCAGGTTC | 506 a.u. |
| GAATCTAAAGTATGCTTCGTGCGTTTTAGGATATAG | 521 a.u. |
| GAAGTACTAGATAGTCACGTGAATGTATACACGTAG | 17300 a.u. |
| GAATTAACCTTCCCAAACGTGTCCCACACCAAATAG | 559 a.u. |
| TGTACGAAGCTATGATGATGGATTATAGTAGTTAGG | 534 a.u. |

Block 3
Target: CCNE1, cyclin fold, Cln2 fusion (human)
Method: yeast growth competition, sequencing
Medium: yeast
Setting: weak parent motif
Reference: not given
Direction: higher = stronger binding
Starting sequence: RB1 docking peptide (human); PKPLKKLRFDIEG
| Substitution | normalised enrichment score |
| --- | --- |
| P1H | 0.68 |
| K6D | 0.427 |
| L7R | 0.453 |
| K5N | 0.576 |
| K6P | 0.829 |

Mixed results
| Molecule | target | test | test system | setting | how to read | endpoint | result |
| --- | --- | --- | --- | --- | --- | --- | --- |
| PhoQ, residues 284 288 289 292 302 303 TTCLQL | PhoP, residues 12 14 15 18 19 SEGLL (Escherichia coli, UniProt P23836) | Sort-seq, measured: YFP reporter | E. coli | PhoQ-PhoP variant library, together with: 10 µM Mg2+ | reference: high Mg2+ state, higher = stronger signaling | fold induction | 9.92 |
